Experimental data pooled from the literature.
Numbers after ± are the reported error.
Chain of UniProt P53680 (whole entry, looked up): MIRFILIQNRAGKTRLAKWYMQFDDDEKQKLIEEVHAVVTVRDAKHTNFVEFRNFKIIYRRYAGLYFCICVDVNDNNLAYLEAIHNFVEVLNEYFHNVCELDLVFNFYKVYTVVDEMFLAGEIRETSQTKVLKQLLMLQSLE
Chain of UniProt Q5VWZ2 (whole entry, looked up): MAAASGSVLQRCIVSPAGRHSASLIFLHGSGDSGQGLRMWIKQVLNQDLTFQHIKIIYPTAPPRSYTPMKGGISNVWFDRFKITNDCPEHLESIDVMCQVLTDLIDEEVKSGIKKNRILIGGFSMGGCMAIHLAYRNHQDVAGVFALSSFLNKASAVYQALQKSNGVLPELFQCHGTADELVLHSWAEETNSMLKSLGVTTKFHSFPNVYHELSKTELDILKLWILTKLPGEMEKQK

`C[C@@H](O)[C@@H](CO)NC(=O)[C@@H](CCCNC(=N)N)NC(=O)[C@@H]1CCCN1C(=O)[C@@H]1CSSC[C@H](NC(=O)[C@H](Cc2ccccc2)NC(=O)CN2CCN(CC(=O)O)CCN(CC(=O)O)CCN(CC(=O)O)CC2)C(=O)N[C@@H](Cc2ccc(O)cc2)C(=O)N[C@@H](Cc2ccccc2)C(=O)N[C@@H](CCC(N)=O)C(=O)N[C@@H](CC(N)=O)C(=O)N1` [gallium-68 labelled] has a tissue uptake of 0.74 %ID/g (healthy Wistar rat, muscle; intravenous, 8 MBq, 30 min, individual animals).
`COc1ccc(-c2c(-c3ccc(C#N)c(F)c3)nc(N3CCC(N)CC3)n(C)c2=O)cc1F` — result for “serious adverse event incidence”: 0% (refers to: Hematemesis; human patients; oral, 60 mg, dose expansion).
With `CC[C@H](C)[C@H](NC(=O)[C@H](Cc1ccccc1)NC(=O)[C@H](CCC(=O)O)NC(=O)[C@H](CCCNC(=N)N)NC(=O)[C@H](C)NC(=O)[C@H](C)NC(=O)[C@H](CCC(N)=O)NC(=O)[C@H](CCC(=O)O)NC(=O)[C@H](CCC(=O)O)NC(=O)[C@H](CC(C)C)NC(=O)[C@H](Cc1ccc(O)cc1)NC(=O)[C@H](CO)NC(=O)[C@H](CO)NC(=O)[C@@H](NC(=O)[C@H](CC(=O)O)NC(=O)[C@H](CO)NC(=O)[C@@H](NC(=O)[C@H](Cc1ccccc1)NC(=O)[C@@H](NC(=O)CNC(=O)[C@H](CCC(=O)O)NC(=O)[C@H](C)NC(=O)CCc1c[nH]cn1)[C@@H](C)O)[C@@H](C)O)C(C)C)C(=O)N[C@@H](C)C(=O)N[C@@H](Cc1c[nH]c2ccccc12)C(=O)N[C@@H](CC(C)C)C(=O)N[C@H](C(=O)N[C@@H](CCCNC(=N)N)C(=O)NCC(=O)N[C@@H](CCCNC(=N)N)C(=O)N[C@@H](CCCCNC(=O)COCCOCCNC(=O)COCCOCCNC(=O)CC[C@H](NC(=O)CCCCCCCCCCCCCCCCC(=O)O)C(=O)O)C(=O)NCC(=O)NCC(=O)N[C@@H](CO)C(=O)N[C@@H](CCCCNc1c(NCCCCCN(O)C(=O)CCC(=O)NCCCCCN(O)C(=O)CCC(=O)NCCCCCN(O)C(C)=O)c(=O)c1=O)C(=O)O)C(C)C` [zirconium-89 labelled] the tissue uptake was 0.1 %ID/g (gamma counting; rat, colon content; intravenous, 3 nmol/kg, 72 h).
With `C[C@H]1CN(c2n[nH]c3nc(N[C@H]4CC[C@H](NS(=O)(=O)CCC(F)(F)F)CC4)ncc23)CCO1` the remaining binding was 1.13 (AP-2 complex subunit sigma (Homo sapiens, UniProt P53680); Kinobeads competition, refers to: AP2S1; 0.16 µM, unit not given; reference: vehicle).
For `CC[C@H](C)[C@@H]1NC(=O)[C@@H]2CCCN2C(=O)[C@H](CC(C)C)NC(=O)[C@H](CC(C)C)NC(=O)CNC(=O)[C@@H](NC(=O)[C@@H](NC(=O)[C@H](CC(=O)O)NC(=O)CNC(=O)[C@@H](NC(=O)[C@H](C)NC(=O)CNC(=O)[C@H](CCCCN)NC(=O)[C@H](CC(C)C)NC(=O)[C@H](CC(C)C)NC(=O)[C@H](CCCCN)NC(=O)CNC(=O)[C@@H](NC(=O)[C@@H](N)CC(C)C)C(C)C)C(C)C)C(C)C)CSSC[C@@H](C(=O)O)NC1=O`, “log2 fold change” read -0.581 (RNA-seq, refers to: Them6; mouse, traumatic brain injury model, frontal cortex and hippocampus; dose not given; reference: TBI alone).
`CC(C)[C@@H]1NC(=O)CNC(=O)[C@H](CC(N)=O)NC(=O)[C@H](CCCNC(=N)N)NC(=O)[C@H](Cc2ccc(O)cc2)NC(=O)[C@H](C(C)C)NC(=O)[C@@H](NC(=O)[C@@H](NC(=O)[C@H](CC(N)=O)NC(=O)[C@H](Cc2c[nH]c3ccccc23)NC(=O)[C@H](C)NC(=O)[C@H](Cc2ccccc2)NC(=O)CN)C(C)C)CSSC[C@@H](C(=O)N[C@@H](Cc2cnc[nH]2)C(=O)N[C@@H](CCCNC(=N)N)C(=O)N[C@@H](CCCNC(=N)N)C(=O)N[C@@H](C)C(=O)N[C@@H](CC(N)=O)C(N)=O)NC(=O)[C@H](C(C)C)NC(=O)[C@H](CCCNC(=N)N)NC1=O` has an eosinophils of 2.18 ± 0.05% (ICR mouse, blood; intramammary, 10 mg/kg, day 5, 3 d dosing).
The Tmax of `CC(=O)c1c(C)c2cnc(Nc3ccc(C4CCN(CCS(C)(=O)=O)CC4)cn3)nc2n(C2CCCC2)c1=O` is reported as 1.44 h (human, plasma; oral, 75 mg twice daily, day 1, single dose, added: letrozole).
With `[O-][S+]1CCc2nc(N3CCC(c4ncc(Cl)cn4)CC3)nc(NC3(CO)CCC3)c21` (stereo not shown) the haemoglobin was 129 g/L (healthy male subjects; 36 mg single dose, 11.9 (unit not given), after last treatment).
`COS(C)(=O)=O` — result for “micronucleated PCE per 1000 PCE”: 12.1 (female Hsd:ICR (CD-1) mouse, bone marrow; oral, 40 mg/kg/day, positive control).
The fraction unbound of `CC(C)CC(=O)OC[C@H]1O[C@@](C#N)(c2ccc3c(N)ncnn23)[C@H](O)[C@@H]1O` is reported as 0.198 (human plasma; 9 µM).
With `c1ccc2cc3c(ccc4ccccc43)cc2c1` the metabolism rate was 16.3 pmol/min/mg (pooled human liver microsomes; 0.25 µM, pH 7.4).
`CO[C@H]1C[C@@H]2CC[C@@H](C)[C@@](O)(O2)C(=O)C(=O)N2CCCC[C@H]2C(=O)O[C@H]([C@H](C)C[C@@H]2CC[C@@H](OC(=O)NCCOCCOCCOCCOCCOCCOCCOCCOCCC(=O)N3CCc4cc(Cn5nc(-c6ccc7oc(N)nc7c6)c6c(N)ncnc65)ccc4C3)[C@H](OC)C2)C[C@@H](O)[C@H](C)/C=C(\C)[C@@H](O)[C@@H](OC)C(=O)[C@H](C)C[C@H](C)/C=C/C=C/C=C/1C` — result for “abdominal pain incidence”: 0% (patients with advanced solid tumours; intravenous, 6 mg weekly, grade 3 or higher).
Under “participants with adverse event”, `COc1ccc(C[C@@H]2NC(=O)[C@H]([C@@H](C)O)NC(=O)[C@@H]3[C@@H]4CCN3C(=O)[C@@H]3Cc5cn(c6ccc(F)cc56)CCCCCCN(Cc5ccc(cc5)CCNC(=O)[C@]5(C)CCCN5C2=O)C(=O)CCC(=O)N[C@@H](C)C(=O)N[C@H](CNC(=O)CCCCC[N+](C)(C)C)C(=O)N[C@@H](Cc2cccc(c2)CNC(=O)CO4)C(=O)N3)cc1` is recorded as 3.2% (refers to: Hyperhidrosis; humans; concentration not given, Study-003).
Under “mean corpuscular haemoglobin”, `O=S(=O)(Nc1ccccc1)c1ccc(NC(=S)Nc2ccccc2)cc1` is recorded as 11.8 pg (female mouse, blood; oral, 20 mg/kg daily, 14 days).
`Cn1cncc1-c1c(F)cncc1NC(=O)c1c(N)nn2cc(F)cnc12`: “grade ≥3 white cell decrease incidence” 25% (human patients; oral, 270 mg once daily).
`CCN1[C@@H](C(=O)NC23CCC(C(=O)O)(CC2)CC3)[C@H](c2cccc(Cl)c2F)[C@]2(C(=O)Nc3cc(Cl)ccc32)C12CCCCC2` — result for “grade ≥3 Anemia incidence”: 37.5% (patients with advanced solid tumours; oral, 150 mg).
For `C[C@]1(CO)Cc2ncn(-c3ccc(C#N)c(Cl)c3)c2C(=O)O1`, the AUC(0-inf) was 0.904 µM·h (human, Chinese, plasma; 3 mg single dose, geometric mean).
For `CCOc1ccc(NC(=O)c2cnn(-c3ccc(C)c(Cl)c3)c2C2CCNCC2)cc1`, the maximum response was -9.03% (Vero-E6; CellTiter-Glo ATP; 72 h, retest 8-point duplicates; reference: DMSO 0%, hyamine -100%, more negative, more toxic).
The sodium of `CCc1ccc(CC/C=C/c2ccc3c(c2)C(=O)CC3)cc1` is reported as 140 mM (Sprague-Dawley rat, female, serum; oral, 120 mg/kg/day, 14 days).
For `O=C1Nc2cc3[nH]nc(-c4ccncc4)c3cc2CN1Cc1ccccc1`, “patients with dizziness” read 0% (CTCAE v4.03; advanced solid tumour patients; intravenous, 1.8 mg/kg, schedules 1/2).
For `C[C@@H]1OC(=O)NN=C1c1ccc(-c2ccc(F)cc2)c(C(F)(F)F)c1`, “patients with adverse event” read 0% (phase I trial, refers to: Fatigue worst grade 1; human patients; 5 mg loading then 0.25 mg daily).
With `CCCCCCCCCCCCCCCC(=O)N[C@@H](CCC(=O)NCCCC[C@H](NC(=O)[C@H](CC(=O)O)NC(=O)[C@H](CO)NC(=O)[C@@H](NC(=O)[C@H](Cc1ccccc1)NC(=O)[C@@H](NC(=O)CNC(=O)[C@H](CCC(N)=O)NC(=O)[C@H](CO)NC(=O)[C@@H](N)Cc1c[nH]cn1)[C@@H](C)O)[C@@H](C)O)C(=O)N[C@@H](CO)C(=O)N[C@@H](CCC(=O)O)C(=O)N[C@@H](Cc1ccc(O)cc1)C(=O)N[C@@H](CC(C)C)C(=O)N[C@@H](CC(=O)O)C(=O)N[C@@H](CO)C(=O)N[C@@H](CCC(=O)O)C(=O)N[C@@H](CCCNC(=N)N)C(=O)N[C@@H](C)C(=O)N[C@@H](CCCNC(=N)N)C(=O)N[C@@H](CC(=O)O)C(=O)N[C@@H](Cc1ccccc1)C(=O)N[C@H](C(=O)N[C@@H](C)C(=O)N[C@@H](Cc1c[nH]c2ccccc12)C(=O)N[C@@H](CC(C)C)C(=O)N[C@@H](CCC(=O)O)C(=O)N[C@@H](C)C(=O)NCC(=O)NCC(=O)O)C(C)C)C(=O)O` the atrial fibrillation was 0% (human, CrCl ≥20 to <30 mL/min; sc, 100 µg single dose).
Under “patients with Stomatitis TEAE”, `C[C@]1(O)C[C@@](N)(c2ccc(-c3nc4n(c3-c3ccccc3)COc3ccncc3-4)cc2)C1` is recorded as 0% (human, advanced or metastatic solid tumours; once daily, dose escalation total, any grade).
`O=C1c2c(O)c(=O)ccn2N([C@@H]2c3ccccc3SCc3c2ccc(F)c3F)[C@@H]2COCCN12` gave a plasma concentration of 24 ng/mL (BALB/c mice, plasma; oral, 15 mg/kg baloxavir marboxil, 8 h).
`Cn1cc(-c2nc(N[C@@H]3CCCC[C@@H]3N)c(F)c3c2C(=O)NC3)cn1` — result for “hemorrhagic adverse events”: 14% (refers to: Hemoptysis; patients with relapsed or refractory AML; oral, 100 mg once daily).
The Vz of `Cc1ccc(F)c2cc(C(=O)N[C@@H]3CCC[C@H](N4CC[C@H](N(C)S(C)(=O)=O)C4)C3)[nH]c12` is reported as 14.2 L/kg (CD1 mouse; intravenous, 1 mg/kg).
`COc1ccc2c(c[n+](C)c3c4cc5c(cc4ccc23)OCO5)c1OC` gave an AUC(0-inf) of 74300 ng·h/mL (LC-MS/MS; rat, plasma; dose not given).
For `CC(C)N(CCc1c[nH]c2cccc(OC(=O)CCCC(=O)O)c12)C(C)C.Cl`, the Tmax was 0.5 h (male beagle dog, plasma; subcutaneous, 1 mg/kg).
`CCCC(CCC)NC(=O)c1ccc2c(c1)OCO2` gave a micronucleated PCEs of 0.1% (Swiss albino CD-1 mice, male, bone marrow; intraperitoneal, 175 mg/kg, 24 h).
`Cc1cccc(N2CCN(C(=O)C3CCN(Cc4nc(-c5ccc(Cl)cc5)oc4C)CC3)CC2)c1C` gave a maximum response of 2.27% (Vero-E6; CellTiter-Glo ATP; 72 h, retest 8-point duplicates; reference: DMSO 0%, hyamine -100%, more negative, more toxic).
With `CCC[C@@](N)(CO)CCc1ccc(OCCCCCC(C)C)cc1` the Tmax was 2 h (C57BL/6 mice; oral, 50 mg/kg).
Under “grade 1 or 2 Hematochezia”, `COc1cc2c(Oc3ccc4[nH]c(C)cc4c3F)ccnc2cc1OCC1(N)CC1` is recorded as 9.1% (paediatric recurrent refractory sarcoma; 12 mg).
`CC(=O)Nc1cccc(-n2c(=O)n(C3CC3)c(=O)c3c(Nc4ccc(I)cc4F)n(C)c(=O)c(C)c32)c1` — result for “discontinuation due to adverse event”: 17% (Japanese patients; part).
For `O=C(c1ccc(Cl)cc1)N1CCN2C(=O)N(OC(=O)N3CCOc4ccccc43)C(=O)C2C1` (stereo not shown), the median ratio was 1.14 (Lysophospholipase-like protein 1 (LYPLAL1, Homo sapiens, UniProt Q5VWZ2); enzyme activity, inhibitor, MS-based ABPP; SW-620 in situ; 10 µM, 2 h, 37 °C; reference: compound over DMSO, lower = stronger inhibition).
